Published values pooled from the literature.
Parts stem from different laboratories: compare values within a part only. Several values in a cell are separate wells, animals, samples, runs or records.

Sample 1
Target: Sal-like protein 4, full length isoform B (SALL4, Homo sapiens, UniProt Q9UJQ4-2, residues 1-616)
Technique: universal PBM
Molecule type: double-stranded DNA, one strand shown
Sample: in vitro
Concentration: not given
Notes: 8-mer, flanks averaged, mean of replicates
Direction: higher = stronger binding
Residues (chain): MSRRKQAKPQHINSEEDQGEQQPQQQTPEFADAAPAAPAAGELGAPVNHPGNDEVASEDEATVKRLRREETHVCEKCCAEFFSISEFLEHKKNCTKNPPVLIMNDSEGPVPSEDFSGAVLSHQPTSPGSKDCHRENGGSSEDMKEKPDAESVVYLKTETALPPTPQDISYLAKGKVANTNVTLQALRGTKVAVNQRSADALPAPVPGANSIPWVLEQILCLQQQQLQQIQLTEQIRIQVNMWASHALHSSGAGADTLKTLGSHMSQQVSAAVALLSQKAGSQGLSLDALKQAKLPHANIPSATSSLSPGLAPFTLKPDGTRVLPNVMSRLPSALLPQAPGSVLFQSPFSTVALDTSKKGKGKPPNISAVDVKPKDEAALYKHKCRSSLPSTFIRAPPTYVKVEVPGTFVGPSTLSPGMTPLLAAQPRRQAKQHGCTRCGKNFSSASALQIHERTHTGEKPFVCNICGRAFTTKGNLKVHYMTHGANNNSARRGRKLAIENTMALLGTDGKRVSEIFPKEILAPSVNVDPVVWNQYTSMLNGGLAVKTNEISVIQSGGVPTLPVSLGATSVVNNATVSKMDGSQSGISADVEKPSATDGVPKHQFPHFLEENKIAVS
Strand	E-score
AGCCGTCC	-0.137
CCGGGAGA	-0.185
CGGACTCA	-0.169
CATAAAAC	0.262
AAGCCGGC	-0.32
ATCAGGGG	-0.127
CAGGAAAC	-0.0609
CCCACAAA	0.0949

Sample 2
Cell line: HEK-293T/ACE2
Concentration: concentration not given
Time: 16 (unit not given)
Reference: vehicle
SMILES	viability
CCCCN1CCCC[C@H]1C(=O)Nc1c(C)cccc1C	101% and 100%
CO[C@H]1C(=O)[C@]2(C)[C@@H](OC)C[C@H]3OC[C@@]3(OC(C)=O)[C@H]2[C@H](OC(=O)c2ccccc2)[C@]2(O)C[C@H](OC(=O)[C@H](O)[C@@H](NC(=O)OC(C)(C)C)c3ccccc3)C(C)=C1C2(C)C	57.7%
Nc1ccn([C@H]2CC[C@@H](CO)O2)c(=O)n1	100%

Sample 3
Target: Interferon regulatory factor 7, full length, phosphomimetic (IRF7, Homo sapiens, UniProt Q92985, residues 1-503, S471D/S472D/S475D/S476D/S477D/S483D/S484D/S487D)
UniProt Q92985, sequence (whole entry, unmodified, looked up): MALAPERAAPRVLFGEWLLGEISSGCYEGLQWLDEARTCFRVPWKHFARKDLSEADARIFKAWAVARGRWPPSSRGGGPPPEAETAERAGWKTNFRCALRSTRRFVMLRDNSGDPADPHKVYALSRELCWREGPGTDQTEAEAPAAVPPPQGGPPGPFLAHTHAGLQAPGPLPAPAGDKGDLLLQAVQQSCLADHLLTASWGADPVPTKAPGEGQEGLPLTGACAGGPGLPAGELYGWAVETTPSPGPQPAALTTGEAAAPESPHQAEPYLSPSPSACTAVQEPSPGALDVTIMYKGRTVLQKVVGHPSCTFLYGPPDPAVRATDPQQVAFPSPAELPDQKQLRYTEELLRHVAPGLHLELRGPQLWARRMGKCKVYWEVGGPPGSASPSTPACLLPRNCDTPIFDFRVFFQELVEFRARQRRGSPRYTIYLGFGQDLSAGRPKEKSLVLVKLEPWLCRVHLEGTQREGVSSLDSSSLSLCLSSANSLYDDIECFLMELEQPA
Technique: protein-binding microarray
Molecule type: double-stranded DNA, one strand shown
Sample: in vitro
Concentration: 2200 nM top
Notes: 60-bp whole probe
Added: salmon DNA 0.4 mg/ml
Reference: random background probes
Direction: higher = stronger binding
Constant ends, left off below: GCCTAGCAC … GTCTTGATTCGCTTGACGCTGCTG
Strand	fitted relative affinity [z-score]
GGCGGTATCGGGTTTCGGGACGTGCTA	1.05
GACGGTATCCTTAGCCTGACGTGCTAG	0.562
GACGGTCTCGGACTGGGGACGTGCTAG	-0.386
CTGTACATCTATGTAGAAAGGTGCTAG	0.347
TTAGATATCGGGTATCGATTAGTGCTA	0.123
GACGTTTTCAGTTCCGAGACGTGCTAG	3.51
TTAGATTTGAGACTGGATTAGTGCTAG	-0.295
TCATGTCTGGGTCTTGGACTGTGCTAG	0.228

Sample 4
Target: Replicase polyprotein 1ab, polymerase (rep, Severe acute respiratory syndrome coronavirus 2, UniProt P0DTD1)
Effect on: enzyme activity
Mode: inhibitor
Concentration: 20 µM
SMILES	inhibition [%]
O=C(O)c1ccccc1Nc1cccc(OCc2ccc3ccccc3n2)c1	1.9
Cc1[nH]c2ccc(O)cc2c1CCN	-10.3
Cc1nc[nH]c1CCN	-9.73
CCCCOc1cc(CC2CNC(=O)N2)ccc1OC (stereo not drawn)	-0.08
CC(C)C[C@H](NC(=O)CNC(=O)c1cc(Cl)ccc1Cl)B1OC(=O)CC(CC(=O)O)(C(=O)O)O1 (stereo partly drawn)	-2.9
CCCCN(CC)c1nc(C)nc2c1c(C)c(C)n2-c1c(C)cc(C)cc1C	3.98
N=C(N)Nc1ccc(C(=O)Oc2ccc3cc(C(=N)N)ccc3c2)cc1	6.91
O=C(Nc1cc(-c2ccccc2)nn1-c1ccccc1)c1ccc([N+](=O)[O-])cc1	1.28
CCCCN(CCCC)C(=O)CN1C[C@H](c2ccc3c(c2)OCO3)[C@@H](C(=O)O)[C@@H]1c1ccc(OC)cc1	-2.63
Cc1cc(NC(=O)NCCN2CCC(O)(Cc3ccccc3)CC2)c2ccccc2n1	-8.15
COc1cc2ncnc(Nc3cccc(Cl)c3F)c2cc1OC(=O)N1CCN(C)C[C@H]1C	-5.88
CCC(C)(CN(C)C)OC(=O)c1ccccc1 (stereo not drawn)	-0.03
COc1cc(C(=O)N2CCC(N3CCN(C)CC3)CC2)ccc1Nc1ncc2c(n1)N(C)c1ccccc1C(=O)N2C	11.4
O=c1c(O)c(-c2ccc(O)cc2)oc2cc(O)cc(O)c12	9.99
C[N+]1(C)CCC(OC(=O)C(c2ccccc2)c2ccccc2)CC1	0.86
Oc1cc2c(cc1O)[C@@H]1c3ccc(O)c(O)c3OC[C@]1(O)C2	5.29
COc1cccc(/C=N/N=C/c2cccc(OC)c2)c1	-4.79
CC1(O)CCC(C(C)(C)O)CC1 (stereo not drawn)	2.06
CCOC(CN1CCN(CC(C)C(=O)c2ccccc2)CC1)c1ccccc1 (stereo not drawn)	4.12
Cn1c(CNc2ccc(C(=N)N)cc2)nc2cc(C(=O)N(CCC(=O)O)c3ccccn3)ccc21	3.98
Cc1coc2c1C(=O)C(=O)c1c-2ccc2c1CCCC2(C)C	2.94

Further values, each from its own experiment
Target: Replicase polyprotein 1ab, main protease (rep, Severe acute respiratory syndrome coronavirus 2, UniProt P0DTD1)
Effect on: enzyme activity
Concentration: 20 µM
Compound	mode	notes	inhibition [%]
CN(C)C(=S)SSC(=S)N(C)C	inhibitor	hit confirmation	99.9
CN1CCN(C(=O)c2ccc(-c3ccc4c(C=O)c(O)ccc4c3)s2)CC1		with DTT	66.5

Repeated from above (sample 3):
Strand	fitted relative affinity [z-score]
GACGGTCTCGGACTGGGGACGTGCTAG	-0.386
TCATGTCTGGGTCTTGGACTGTGCTAG	0.228
GACGGTATCCTTAGCCTGACGTGCTAG	0.562
TTAGATTTGAGACTGGATTAGTGCTAG	-0.295
GGCGGTATCGGGTTTCGGGACGTGCTA	1.05
CTGTACATCTATGTAGAAAGGTGCTAG	0.347
